Published values gathered from unrelated publications.
Each numbered part is a random draw from the data of one study; scales do not carry over between parts. Positions count from the first letter of the parent shown.

Set 1 — method: protein binding microarray; form: double-stranded DNA, one strand shown; matrix: in vitro; concentration: not given; reference: not given; reading: higher = stronger binding; measurement: E-score
Target: Histone acetyltransferase KAT6A, winged helix 1, GST fusion (KAT6A, Homo sapiens, UniProt Q92794, residues 1-85)
Setting: 8-mer, flanks averaged, mean of 2 arrays, mostly near background
Target sequence (chain): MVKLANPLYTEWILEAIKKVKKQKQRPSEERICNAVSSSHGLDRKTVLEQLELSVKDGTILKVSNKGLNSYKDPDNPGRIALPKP
CATGCCTA: -0.146
GGACATTA: 0.105
TCCCACAA: -0.135
ATATGTGG: -0.279
CCCTCGAG: -0.201
CGACCGGA: 0.145
TCTTTGCA: -0.246
TCTGGAAA: -0.0725
CAAGGCCG: 0.179

Set 2 — method: RNA Bind-n-Seq; form: RNA; matrix: in vitro; concentration: not given; reference: input RNA pool; reading: higher = stronger binding; measurement: bound/input enrichment
Target: RING finger protein unkempt homolog, zinc fingers 1-6, GST-SBP tag (UNK, Homo sapiens, UniProt Q9C0B0, residues 30-357)
Setting: RNA with constant flanks, human and mouse sites, ends assumed
Shared flanks, not repeated: GGGAGUUCUACAGUCCGACGAUC … CAACAGAGGAUUGAGCAUCA
Target sequence (chain): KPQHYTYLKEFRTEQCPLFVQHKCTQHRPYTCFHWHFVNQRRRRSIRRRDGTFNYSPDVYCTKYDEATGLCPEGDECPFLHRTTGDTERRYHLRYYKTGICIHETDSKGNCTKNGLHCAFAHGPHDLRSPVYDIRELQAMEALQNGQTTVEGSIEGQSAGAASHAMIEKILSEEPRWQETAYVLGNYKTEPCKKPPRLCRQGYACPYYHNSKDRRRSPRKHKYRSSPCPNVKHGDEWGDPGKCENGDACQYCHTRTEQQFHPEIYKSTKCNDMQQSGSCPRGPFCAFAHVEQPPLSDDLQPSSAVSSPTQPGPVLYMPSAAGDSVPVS
CAAAAUUACCAAGAAUACAAUCUGGCCAACAUCAUCUACUACUCUCUGAAGGAGUCCACCACUAGUGAGCAGAGUGCCAGGAUGACAGCCAUGGACAAUGCCAGCAAGAAUGCUUCUGAG: 0.21 ratio
AAUAUUAAAGAAGCUGCCAGGUGGAUGGAUGAAGCCCAGGCCCUGGACACAGCAGACAGAUUUAUUAAUUCCAAGUGUGCAAAAUACAUGUUAAAAGCCAACCUGAUUAAAGAGGCUGAA: 0.251 ratio
GAUUGCUGGCGAGGAGGAGGAGUUCAUGUAGUGUUUGAGUGAAGCUUGAGUCACCAUGAGUAGUAGUUUAGGAAAAGAAAAAGACUCUAAAGAGAAAGACCCCAAAGUACCGUCUGCCAA: 2.17 ratio
GAUUCCCUUGGAAUUCCAUUUUUGGAAACCAGUGCUAAGAACGCAACGAAUGUAGAACAGUCUUUCAUGACGAUGGCAGCUGAGAUUAAAAAGCGAAUGGGUCCUGGAGCUACAGCUGGU: 0.146 ratio
UUGGCCCAAGGACUUGGUACAGGAAGGGAGAAGGGCAGGUGGGCAGGGAGCAGACAGGGUCUGGCUUUGCCCAGAGGGCACGGGCUUUCCCACCUCUCAAAGAGACAAGGAAGCCACCUG: 0.145 ratio
ACAUUUGAUGAGCUUCGAGAAACCAAAACCUCUGAGUACUUUAGUCUGUCCCACCAGCAGUUAGACUACAGAAUAUUGCUGAUGGAUGAAGAUCAAGACCGGAUAUAUGUGGGGAGCAAA: 0.262 ratio
CAGCUCUUCUCAGACUACGUGGGCAGCCCCAUCACCUGCACCUGCUUCAGCCGGGAUGGGCAGUGCACCCUGGUGUCCAGCCUGGACUCCACAUUGCGGCUCCUGGACAAAGACACAGGG: 0.0893 ratio
GUUUUAAUAAAGGCUCUUGAAAUUACAAAAGCAAGUCACGUGAGCCCCCACCCAGGAGAUAGCUGGAUUCCUUUACUCAUUAAUGCCGUUGACCAUUGCAUGAACAGAAUUAAGGCGCUC: 0.784 ratio
UGCAGGAAGGAAAUUGACGAACACGUGACGCGGUCGGGCGGACCACUGCAGACUGAGCGGUGGACCGAAUUGGGACCGCUGGCUUAUAAGCGAUCAUGUUUCUCCAGUAUUACCUCAACG: 0.0702 ratio

Set 3 — target: CCNA1, cyclin fold, Cln2 fusion (human); method: yeast growth competition, sequencing; matrix: yeast; setting: weak parent motif; reference: not given; reading: higher = stronger binding; measurement: normalised enrichment score
Starting sequence: E2F1 docking peptide (human); PPVKRRLDLETDH
D12E: 0.557
P2H: 0.531
D12T: 0.228
R5L: 0.472
E10S: 0.293
R5K: 0.398
T11F: 0.807
V3R: 0.597

Other studies, line by line
PhoQ, residues 284 288 289 292 302 303 SLCLSL  fold induction (PhoP, residues 12 14 15 18 19 SEGLL (Escherichia coli, UniProt P23836); Sort-seq, refers to: YFP reporter; E. coli; PhoQ-PhoP variant library, together with: 10 µM Mg2+; reference: high Mg2+ state, higher = stronger signaling): 2.41

Repeated from above (set 3):
R5K: 0.398
E10S: 0.293
V3R: 0.597
